Assay results collected from several papers.
Lines come from different studies, so protocols differ. “And” joins repeats or separate records; there may be more than shown. ± gives the spread as reported.
odorant-binding protein 24: odorant-binding protein 24 (Monochamus alternatus, UniProt A0A1I9HZN3)
LRRK2 G2019S: Leucine-rich repeat serine/threonine-protein kinase 2 (LRRK2, Homo sapiens, UniProt Q5S007, G2019S)
ADORA3: Adenosine receptor A3 (ADORA3, Homo sapiens, UniProt P0DMS8)
Mapk1: Mitogen-activated protein kinase 1 (Mapk1, Rattus norvegicus, UniProt P63086)
HRH4: Histamine H4 receptor (HRH4, Homo sapiens, UniProt Q9H3N8)
HTR1A: 5-hydroxytryptamine receptor 1A (HTR1A, Homo sapiens, UniProt P08908)
Adcy2/ADCY5 C1/C2 domains: Adcy2/ADCY5, C1/C2 domains (Rattus norvegicus, UniProt P26769+P30803)
SLC18A3: Vesicular acetylcholine transporter (SLC18A3, Homo sapiens, UniProt Q16572)
SNCA fibrils: Alpha-synuclein, fibrils (SNCA, Homo sapiens, UniProt P37840)

Substance	target or system	assay	system	conditions	measurement	result
COc1ccc(O)c(C(=O)/C=C/c2ccccc2)c1	GABA-A receptor benzodiazepine site (rat)	binding	rat cerebral cortex membranes	together with: [3H]flunitrazepam	Ki	45.7 ± 1.3 µM
c1cc2c(cc1C1CCCCC1)c1c3n2CCNC3CCC1 (stereo not drawn)	MAOA (Homo sapiens, UniProt P21397, S209E)	enzyme activity, competitive inhibitor, Amplex Red coupled		S209E mutant, together with: p-CF3-benzylamine	Ki	16.1 ± 0.57 µM
Cc1nc(N)sc1CCCNC(=N)NCCCCCCCCNC(=N)NCCCc1sc(N)nc1C	HRH3 (Homo sapiens, UniProt Q9Y5N1)	GTPγS binding, antagonist		cell membranes	Kb	29.5 µM
Cc1ccc(C(=O)/C=C/c2ccccc2)cc1	GABA-A receptor benzodiazepine site (rat)	binding	rat cerebral cortex membranes	together with: [3H]flunitrazepam	Ki	6.3 µM and ~6 µM and < 6 µM
C=C(C)[C@@H]1CC=C(C)CC1	odorant-binding protein 24	binding, competitive fluorescence binding		pH 5, together with: 1-NPN	Ki	> 50 µM
Nc1ncnc2c1ncn2[C@@H]1O[C@H](COP(=O)(O)OP(=O)(O)NP(=O)(O)O)[C@@H](O)[C@H]1O	LRRK2 G2019S	kinase activity, inhibitor, TR-FRET		Ki,e, together with: PLK peptide substrate, ATP varied	Ki	400 ± 200 µM
CCOC(=O)[C@@]12C[C@@H]1[C@@H](n1ccc3c(NC)nc(C#Cc4ccc(Cl)s4)nc31)[C@H](O)[C@@H]2O	ADORA3	ligand displacement, radioligand		cell membranes	Ki	0.448 µM
Nc1ncnc2c1ncn2[C@@H]1O[C@H](COP(=O)(O)OP(=O)(O)O)[C@@H](O)[C@H]1O	Mapk1	kinase activity, noncompetitive inhibitor		together with: Sub-F substrate varied, MgATP 1 mM	Ki	808 ± 78 µM
N=C(NCCCCCCCCCCNC(N)=O)NCCCc1c[nH]cn1	HRH4	ligand displacement, radioligand		cell membranes	Ki	0.2 µM
Cc1cccc(NC(=O)c2ccc(Br)cc2)n1	mGluR5	binding	HEK293T cell membranes, transfected		Ki	> 10 µM
CC(=O)N[C@@H](Cc1ccc(O)cc1)C(=O)N[C@@H](C)C(=O)N1CCC[C@H]1C(=O)N[C@@H](CCCNC(=N)N)C(=O)N[C@@H](C)C(=O)N1CCC[C@H]1C(=O)N[C@@H](C)C(=O)N[C@@H](CCCCN)C(=O)N[C@@H](CC(C)C)C(=O)N[C@@H](C)C(=O)N[C@@H](Cc1ccccc1)C(=O)N[C@@H](CCC(N)=O)C(=O)N[C@@H](Cc1ccccc1)C(=O)N1CCC[C@H]1C(=O)N[C@@H](CO)C(=O)N[C@@H](CCCNC(=N)N)C(N)=O	Mapk1	noncompetitive component		together with: substrate Sub-F 15 µM, varied MgATP	Ki	81 ± 10 µM
CC1(CCN2CCc3ccccc3C2)Cc2cc(Cl)ccc2C1=O (stereo not drawn)	HTR1A	radioligand binding		together with: [3H]8-OH-DPAT	Ki	1.35 µM
Nc1nc(F)nc2c1ncn2[C@@H]1O[C@H](COP(=O)(O)OP(=O)(O)O)[C@@H](O)[C@@H]1O	Ribonucleoside-diphosphate reductase large subunit (Homo sapiens, UniProt P23921)	CDP reductase activity, inhibitor		3 min, apparent Ki, together with: CDP substrate, ATP effector	Ki	9.4 ± 1.7 µM
CC(=O)C1CCCN1S(=O)(=O)c1ccc(C)cc1 (stereo not drawn)	MAL12 (Saccharomyces cerevisiae S288c, UniProt P53341)	enzyme activity, inhibitor, absorbance			Ki	5610 µM
Cn1c2c(c3ccccc31)CN(CCCCNC(=O)c1nc3ccccc3[nH]1)CC2	HTR1A	cell-free assay			Ki	0.274 µM
CNc1ccccc1C(=O)O[C@H]1C[C@H](n2cnc3c(N)ncnc32)O[C@@H]1COP(=O)(O)OP(=O)(O)OP(=O)(O)O	Adcy2/ADCY5 C1/C2 domains	adenylyl cyclase activity, inhibitor, purified enzyme		together with: 10 mM MnCl2, 100 µM forskolin, no Gsα-GTPγS	Ki	2.1 ± 0.16 µM
Nc1ccn([C@@H]2O[C@H](CO)[C@@H](O)[C@H]2O)c(=O)n1	Trichomonas vaginalis nucleoside transporter	inhibitor	trophozoites, Trichomonas vaginalis	monophasic fit, together with: [3H]-guanosine	Ki	19 ± 0.9 µM
CSc1ccc(C(=O)C2CCN(C3Cc4ccccc4CC3O)CC2)cc1 (racemic)	SLC18A3	ligand displacement, radioligand			Ki	0.0024 µM
N=C(NCCCCN)NCCCc1c[nH]cn1	HRH4	ligand displacement, radioligand		cell membranes	Ki	0.339 µM
Cn1c(-c2ccc(C(N)=O)cc2F)nnc1C(C)(C)Oc1c(F)cc(Cl)cc1F			young non-Japanese humans, plasma	oral, 2 mg, day 1, single dose	median Tmax	1 h
Cc1nc(N)sc1CCCNC(=N)NCCCCCCCCNC(=N)N	HRH4	ligand displacement, radioligand		cell membranes	Ki	0.398 µM
NS(=O)(=O)Cc1noc2ccccc12	MAOA (Homo sapiens, UniProt P21397)	inhibitor		up to 100 µM, together with: kynuramine	Ki	no inhibition
(+)-limonene oxide	odorant-binding protein 24	competitive fluorescence binding		pH 7.4, together with: 1-NPN	Ki	37.7 ± 5.37 µM
Cc1nc(N)sc1CCCNC(=N)NCCCCCCCCCCCCNC(=N)N	HRH4	ligand displacement, radioligand		cell membranes	Ki	0.589 µM

Substance	target or system	assay	system	conditions	measurement	result
CC1=CC[C@@H]2[C@@H]3[C@H]1[C@@]2(C)CCCC3(C)C	odorant-binding protein 24	competitive fluorescence binding		pH 7.4, together with: 1-NPN	Ki	44.8 ± 7.23 µM
O=c1[nH]cnc2c1ncn2[C@@H]1O[C@H](CO)[C@@H](O)[C@H]1O	P1-type nucleoside transporter	thymidine uptake, inhibitor	Trypanosoma brucei brucei, bloodstream form	15 min, together with: [3H]-thymidine	Ki	1.6 ± 0.6 µM
Nc1ncnc2c1ncn2[C@@H]1O[C@H](COP(=O)(O)OP(=O)(O)O)[C@@H](O)[C@H]1O	LRRK2 G2019S	kinase activity, inhibitor, radiometric		Ki,e, variable ATP	Ki	100 ± 20 µM
N=C(N)NCCCCCCCCCCCCNC(=N)NCCCc1c[nH]cn1	HRH4	ligand displacement, radioligand		cell membranes	Ki	0.0282 µM
(+)-fenchone	odorant-binding protein 24	competitive fluorescence binding		pH 5, together with: 1-NPN	Ki	32 ± 3.3 µM
CCOC(=O)NC(=N)c1ccc(OCc2cccc(COc3ccc(C(C)(C)c4ccc(O)cc4)cc3)c2)cc1	Leukotriene B4 receptor 1 (Cavia porcellus, UniProt H0VYV8, H83G/K88G/S309A)	displacement of LTB4	membrane fraction	H83G/K88G mutant	Ki	0.395 µM
N=C(NCCCCCCCCCCCCN)NCCCc1c[nH]cn1	HRH4	ligand displacement, radioligand		cell membranes	Ki	0.0692 µM
CC[N+](CC)(CC)CC	Kcnma1 (Mus musculus, UniProt Q08460)	channel current, open channel blocker, inside-out patch clamp	cytosolic side	pH 8.5, together with: 300 µM Ca2+	Kb	49000 ± 3200 µM
CC(C)(C)c1nn(-c2cc(OCc3cn(Cc4ccc(C(F)(F)F)cc4)nn3)c(Cl)cc2Cl)c(=O)o1	Toxoplasma gondii	intracellular parasite growth, luminescence	HFF, wild type, NanoLuc reporter	96 h	IC50	1 µM and < 2.5 µM
Nc1nc(Cl)nc2c1ncn2[C@@H]1O[C@H](CO)[C@@H](O)[C@@H]1F	ADORA3	ligand displacement, radioligand		cell membranes	Ki	10.6 µM
O=C(c1ccc(SCCCF)cc1)C1CCN(C2Cc3ccccc3CC2O)CC1 (racemic)	SLC18A3	ligand displacement, radioligand			Ki	0.0023 µM
Nc1ncnc2c1ncn2[C@@H]1O[C@H](CO)[C@@H](O)[C@H]1O	P1-type nucleoside transporter	thymidine uptake, inhibitor	Trypanosoma brucei brucei, bloodstream form	15 min, together with: [3H]-thymidine	Ki	2.3 ± 0.3 µM
CCCCCn1c(=O)n(CCCCN2CCN(c3ccc(F)cc3)CC2)c2ccccc21	rat opioid receptors		rat brain membranes	together with: [3H]bremazocine	Ki	> 10 µM
NC[C@@H]1O[C@H](c2ccccc2)Cc2c1ccc(O)c2O	D(1A) dopamine receptor (Sus scrofa, UniProt P50130)	binding, radioligand competition binding	porcine striatal homogenate	together with: 1 nM [3H]SCH-23390	Ki	0.0026 ± 0.00027 µM
Nc1ccn([C@H]2C[C@H](O)[C@@H](COP(=O)(O)O)O2)c(=O)n1	OGG1 (Homo sapiens, UniProt O15527)	8-oxoguanine excision, competitive inhibitor		pH 7.5, 37 °C, substrate at 2 × Km, together with: 22 nM oxoguanine duplex DNA	Ki	9400 µM
COC(=O)C1(C)C=CC(=O)CC1 (stereo not drawn)	MAPK8 (Homo sapiens, UniProt P45983)	ligand displacement, FP			Ki	> 200 µM
N=C(NCCCCCCCCNC(N)=O)NCCCc1c[nH]cn1	HRH4	ligand displacement, radioligand		cell membranes	Ki	0.275 µM
CN(C)c1ccc(/C=C/C(=O)c2nc3ccccc3s2)cc1	SNCA fibrils	fibril binding, thioflavin T competition		1 µM fibrils, together with: thioflavin T 3 µM	Ki	0.906 ± 0.0297 µM
CC(C)CC(=O)N[C@H](C(=O)N[C@H](C(=O)N[C@@H](CC(C)C)[C@@H](O)CC(=O)N[C@@H](C)C(=O)N[C@@H](CC(C)C)[C@@H](O)CC(=O)O)C(C)C)C(C)C	Pregnancy-associated glycoprotein 2 (PAG2, Bos taurus, UniProt Q28057)	enzyme activity, inhibitor		pH 4.0, 37 °C, Bos taurus enzyme	Ki	0.00056 µM
CC(C)(C)c1nn(-c2cc(OCc3cn(Cc4cccc(Br)c4)nn3)c(Cl)cc2Cl)c(=O)o1	Toxoplasma gondii	intracellular parasite growth, luminescence	HFF, wild type, NanoLuc reporter	96 h	IC50	< 2.5 µM and 1.3 µM
CC1=CCC(=C(C)C)CC1	odorant-binding protein 24	binding, competitive fluorescence binding		pH 5, together with: 1-NPN	Ki	> 50 µM
ANT-GTP	Adcy2/ADCY5 C1/C2 domains	enzyme activity, inhibitor		together with: 10 mM MnCl2 and 100 µM forskolin	Ki	0.16 ± 0.045 µM
Cc1nc(N)sc1CCCNC(=N)NCCCCCCCCCCCCN	HRH4	ligand displacement, radioligand		cell membranes	Ki	4.68 µM
O=C(/C=C/c1ccc([N+](=O)[O-])cc1)c1nccs1	SNCA fibrils	fibril binding, thioflavin T competition		1 µM fibrils, together with: thioflavin T 3 µM	Ki	0.192 ± 0.0035 µM

Repeated from above:
Substance	target or system	assay	system	conditions	measurement	result
CCOC(=O)NC(=N)c1ccc(OCc2cccc(COc3ccc(C(C)(C)c4ccc(O)cc4)cc3)c2)cc1	Leukotriene B4 receptor 1 (Cavia porcellus, UniProt H0VYV8, H83G/K88G/S309A)	displacement of LTB4	membrane fraction	H83G/K88G mutant	Ki	0.395 µM
Cn1c2c(c3ccccc31)CN(CCCCNC(=O)c1nc3ccccc3[nH]1)CC2	HTR1A	cell-free assay			Ki	0.274 µM
Cc1ccc(C(=O)/C=C/c2ccccc2)cc1	GABA-A receptor benzodiazepine site (rat)	binding	rat cerebral cortex membranes	together with: [3H]flunitrazepam	Ki	6.3 µM and ~6 µM and < 6 µM
